Measurements gathered from unrelated publications.
Compare with care: the assays were run in different laboratories. Numbers after ± are the reported error. ≈ marks a conversion by molar mass, not a printed value.
Chain of UniProt P33261 (whole entry, looked up): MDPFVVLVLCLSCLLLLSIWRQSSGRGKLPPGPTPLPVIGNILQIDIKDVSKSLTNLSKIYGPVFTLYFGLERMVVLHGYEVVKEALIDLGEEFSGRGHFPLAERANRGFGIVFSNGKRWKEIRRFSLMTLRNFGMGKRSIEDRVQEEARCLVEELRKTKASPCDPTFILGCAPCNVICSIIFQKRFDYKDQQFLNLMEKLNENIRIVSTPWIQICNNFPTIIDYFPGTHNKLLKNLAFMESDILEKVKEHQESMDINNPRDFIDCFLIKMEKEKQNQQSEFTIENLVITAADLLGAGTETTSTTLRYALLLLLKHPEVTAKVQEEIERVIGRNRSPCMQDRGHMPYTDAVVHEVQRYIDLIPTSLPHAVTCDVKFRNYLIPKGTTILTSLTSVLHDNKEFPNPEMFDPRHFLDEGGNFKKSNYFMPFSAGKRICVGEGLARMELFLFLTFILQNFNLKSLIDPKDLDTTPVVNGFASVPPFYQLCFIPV

| SMILES | target or system | assay | system | setting | how to read | measurement | result |
| --- | --- | --- | --- | --- | --- | --- | --- |
| CC(C)CCN(c1nc(C#N)nc(NC2COC2)n1)C(C)c1ccc(F)cc1 (stereo not shown) |  |  | CD-1 mouse female | intraperitoneal, 10 mg/kg | baseline: brain over plasma | brain/plasma AUC ratio | 0.52 |
| Cc1noc(C)c1Cn1cc(N2C(=O)CN(Cc3cccc(OS(=O)(=O)O)c3)C2=O)cn1 |  |  | rat Sprague-Dawley male, plasma | oral, 30 mg/kg of parent drug |  | AUC(0-last) | 32000 ng·h/mL |
| Oc1ccc2ccccc2c1/N=N/c1ccc(/N=N/c2ccccc2)cc1 |  |  | rat whole blood | 16.0 µg/L, freeze-thaw cycle 3 |  | freeze-thaw stability deviation | -0.9% |
| O=C(O)[C@@H]1C[C@@H](O)CN1C(=O)[C@@H]1CCCN1 |  | potentiometric titration |  | 25 °C, MAH-2 complex, with: Fe(III) |  | log beta | 0.01 |
| CC(C)CCCC(C)CCCC(C)CCOC1O[C@H](CO)[C@@H](O)[C@H](O)[C@@H]1O (stereo partly shown) |  | drop shape tensiometry | water | room temperature |  | surface tension at CMC | 27.2 mN/m |
| C=C(c1cc(F)c(C(=O)O)c(F)c1)c1cc2c(cc1C)C(C)(C)CCC2(C)C |  |  | Sprague-Dawley rat, male, plasma | oral, 100 mg/kg, 9 h, sesame oil vehicle |  | LDL level | 6 ± 1.2 mg/dL |
| CC(=O)N[C@H](C(=O)N[C@H](C(=O)N[C@@H](CCCNC(=N)N)C(=O)N1Cc2ccccc2C[C@H]1C(=O)N[C@@H](Cc1ccccc1)C(N)=O)C1CCCCC1)C(C)C | human PBMC | Bio-Plex multiplex, item: IP-10 |  | 250 µg/mL, 24 h |  | cytokine level | 1210 ± 961 pg/mL |
| C=CC(=O)Nc1cc(Nc2nccc(-c3cn(C)c4ccccc34)n2)c(OCC(F)(F)F)nc1N(C)CCN(C)C | Cytochrome P450 2C19 (CYP2C19, Homo sapiens, UniProt P33261) | enzyme activity, inhibitor | human, liver microsomes | 10 µM |  | activity vs control | 104% |
| CC(C)[C@H](NC(=O)CNC(=O)[C@H](CCC(N)=O)NC(=O)[C@H](C)N)C(=O)O |  | LC-MS/MS | human, male, plasma | intravenous, 10 mg/kg three times daily, day 1, first dose, 10 min infusion, geometric mean |  | Cmax | 2300 ng/mL |
| CCCC[C@H](NC(=O)CNC(=O)CNC(=O)CN1CCN(CC(=O)O)CCN(CC(=O)O)CCN(CC(=O)O)CC1)C(=O)N[C@H]1CC(=O)NCCCC[C@@H](C(N)=O)NC(=O)[C@H](Cc2c[nH]c3ccccc23)NC(=O)[C@H](CCCNC(=N)N)NC(=O)[C@@H](Cc2ccccc2)NC(=O)[C@H](Cc2c[nH]cn2)NC1=O [gallium-67 labelled] |  |  | female C57 mice, B16/F1 melanoma | intravenous, 0.037 MBq, 2 h | baseline: tumour over muscle | tumour to tissue ratio | 76 |
| COc1cc(-c2nc3ccccc3s2)cc(CN2Cc3cccc(n3)CN(Cc3cc(-c4nc5ccccc5s4)cc(OC)c3O)Cc3cccc(n3)C2)c1O |  | UV-vis spectrophotometric titration, item: H4L3+/H3L2+ equilibrium | MeOH/water with NaCl | 50 µM, room temperature, NaCl 0.1 M, MeOH ≤20% v/v |  | pKa1 | 4.35 |
| COc1cc(OC)cc(C2=C3C(C)=C(I)C(C)=[N+]3[B-](F)(F)n3c(/C=C/c4c[nH]c5ccccc45)c(I)c(C)c32)c1 |  |  | DMSO |  |  | absorption maximum | 636 nm |
| CCCC[C@@H]1NC(=O)[C@@H](NC(=O)[C@H](CCC(=O)O)NC(=O)CNC(=O)CN2CCN(CC(=O)O)CCN(CC(=O)O)CCN(CC(=O)O)CC2)CCCCNC(=O)C[C@@H](C(N)=O)NC(=O)[C@H](C(C)C)NC(=O)[C@@H]2CCCN2C(=O)[C@H](CCCNC(=N)N)NC(=O)CNC(=O)[C@H](Cc2c[nH]c3ccccc23)NC(=O)[C@H](CCCNC(=N)N)NC(=O)[C@@H](Cc2ccccc2)NC(=O)[C@H](Cc2c[nH]cn2)NC(=O)[C@H](CCC(=O)O)NC1=O [gallium-67 labelled] |  |  | C57 mice with B16/F1 melanoma | intravenous, 0.037 MBq/mouse, 24 h | baseline: tumour over lung | tumour to lung ratio | 50.2 |
| [64Cu+2].c1ccc(CNCc2ccc(CN3CCCN4CCNCCCN(CC4)CC3)cc2)nc1 | CXCR4 |  | NOD/SCID mouse, U87 and U87-stb-CXCR4 xenografts, liver | iv, 90 min, ex vivo, with: AMD3465 25 mg/kg sc before tracer |  | tissue uptake | 26.5 ± 3.2 %ID/g |
| C[Si](C)(C[C@@H](CN)CC(=O)O)C1CC1 |  | neuromuscular coordination | Wistar rat male | oral, 300 mg/kg, 3 h |  | performance time | 180 s |
| CC(C)C[C@@H](NC(=O)[C@H](NC(=O)[C@H]1CCCN1)[C@H](C)O)C(=O)N[C@H](Cc1c[nH]cn1)C(=O)N[C@@H](C(=O)N[C@H](Cc1c[nH]cn1)C(=O)N[C@H](CC(N)=O)C(=O)N[C@H](CCCNC(=N)N)C(=O)N[C@H](CCCNC(=N)N)C(=O)N[C@H](CCCNC(=N)N)C(=O)N[C@H](CCCNC(=N)N)C(=O)N[C@H](CCCNC(=N)N)C(N)=O)[C@H](C)O |  |  | Beagle dog, CSF | oral, 20 mg/kg, last 2 time points |  | apparent half-life | 190 ± 93 h |
| O=C(O)C1CN(Cc2ccc(-c3noc(-c4ccc(OCC[18F])c(C(F)(F)F)c4)n3)cc2)C1 |  |  | male Sprague-Dawley rat, lung | intravenous, 120 min |  | tissue uptake | 0.272 ± 0.053 %ID/g |
| CC(C)NC(=O)NC1CC=C(c2cc3c(Nc4cc5ncsc5cc4F)ncnc3s2)CC1 (racemic) |  |  | human liver microsomes | 1 µM |  | intrinsic clearance | < 12 mL/min/g protein |
| COCC1CN(C2CCN(c3cc(OC)c(Nc4ncc(Br)c(Nc5ccc6c(c5P(C)(C)=O)OCCO6)n4)cc3C)CC2)C1 |  |  | human patients | oral, dose not given |  | grade ≥3 treatment-related pneumonia | 3.7% |

| SMILES | target or system | assay | system | setting | how to read | measurement | result |
| --- | --- | --- | --- | --- | --- | --- | --- |
| CCCCCCCCCCCCCCCCCC(=O)Nc1ccn(C2OC(CO)C(O)C2(F)F)c(=O)n1 (stereo not shown) |  |  | athymic nude mouse, female, BxPC-3 xenograft, plasma | intravenous, 25 mg/kg gemcitabine equivalent |  | terminal half-life | 21 ± 1.6 min |
| [2H]C([2H])([2H])Oc1cc2c(cc1OC([2H])([2H])[2H])[C@H]1CC(=O)[C@H](CC(C)C)CN1CC2 |  |  | healthy men, urine and feces | oral, 25 mg, time not given |  | radioactive dose recovered | 80% |
| CC(=O)O[C@@H]1[C@@H](OC(C)=O)[C@H](Sc2sc(C(=O)c3ccc(Br)cc3)c(N)c2-c2nc3ccccc3s2)OC[C@H]1OC(C)=O |  |  | DMEM | 72 h, coxsackievirus B4 assay host cells |  | maximum nontoxic concentration | 100 µg/mL |
| O=c1nc(NO)ccn1[C@@H]1O[C@H](CO)[C@@H](O)[C@H]1O |  | RT-PCR, item: CYP2D1 | normal rat, liver | oral, 80 mg/kg twice daily, 5 days | baseline: untreated rats | mRNA level | < 0.1 fold |
| CC(C)(O)c1ncc([S@](N)(=O)=NC(=O)Nc2c3c(cc4c2CCC4)CCC3)s1 |  |  | healthy human, fed | oral, 25 mg twice daily, day 1, tablet formulation, geometric mean |  | Cmax | 2030 ng/mL |
| Cn1c(=O)oc2ccc(-c3ccc(CC(C#N)NC(=O)C4CNCCCO4)c(F)c3)cc21 (stereo not shown) |  |  | human | oral, 10 mg once daily, treatment-related AE, multiple ascending dose |  | triglycerides increased incidence | 33.3% |
| [64Cu+2].c1cnc(CNCc2ccc(CN3CCCN4CCNCCCN(CC4)CC3)cc2)nc1 | CXCR4 |  | NOD/SCID mouse, U87 and U87-stb-CXCR4 xenografts, muscle | iv, 450 min, ex vivo |  | tissue uptake | 0.29 ± 0.03 %ID/g |
| COc1ccc2cc(-c3ccc(-c4ccc(C)cn4)nc3)oc2c1 |  |  | organic solvents | with: quinine bisulfate reference |  | fluorescence quantum yield | ≥ 0.69 |
| C#CCN(CCCNC(=O)CCCCC[N+]1=C(/C=C/C2=C(Cl)C(=C/C=C3\N(CCCCCC(=O)[O-])c4ccccc4C3(C)C)/CCC2)C(C)(C)c2ccccc21)CCCOc1ccc(Cl)cc1Cl |  |  | C57BL mouse, plasma | intravenous, 5 mg/kg |  | terminal half-life | 36.6 min |
| O=C(O)C1OC(OC2C(COS(=O)(=O)O)OC(OC3C(C(=O)O)OC(OC4C(COS(=O)(=O)O)OC(OC5C(C(=O)O)OC(OC6C(COS(=O)(=O)O)OC(OC7C(C(=O)O)OC(OC8C(COS(=O)(=O)O)OC(OC9C(C(=O)O)OC(OC%10C(COS(=O)(=O)O)OC(OC%11C(C(=O)O)OC(Oc%12ccc([N+](=O)[O-])cc%12)C(O)C%11O)C(NS(=O)(=O)O)C%10O)C(OS(=O)(=O)O)C9O)C(NS(=O)(=O)O)C8O)C(OS(=O)(=O)O)C7O)C(NS(=O)(=O)O)C6O)C(OS(=O)(=O)O)C5O)C(NS(=O)(=O)O)C4O)C(OS(=O)(=O)O)C3O)C(NS(=O)(=O)O)C2OS(=O)(=O)O)C(O)C(O)C1OC1OC(COS(=O)(=O)O)C(O)C(O)C1NS(=O)(=O)O (stereo not shown) |  |  | rats | intravenous, 3600 µg/kg/day for 7 days, day 8 |  | thyroid/parathyroid to body weight ratio | 0.0058 ± 0.0011 |
| CCOCn1cc(F)c(=O)n(C(=O)c2cccc(C(=O)Oc3cc(OC(=O)c4cc(OC(=O)CC)nc(OC(=O)CC)c4)c(Cl)cn3)c2)c1=O |  |  | human patients | oral, dose not given, phase I/II, preliminary |  | tolerability | not toxic |
| CC(C)c1cnc(-c2cc(Cl)ccc2F)cc1Nc1ccncc1C(=O)NC(CO)CO |  | item: intracranial tumour haemorrhage | human patients | oral, dose not given, grade 3 |  | patients with related SAE | 2.4% |
| C#CCOc1ccc(/C=C2\SC(=O)N(CC(=O)NCc3ccccc3)C2=O)cc1 |  | inverse Kirkwood-Buff integrals | binary solvent mixture | 298.15 K, mole fraction x1 0.05 |  | Kirkwood-Buff integral G2,3 | -656 cm³/mol |
| O=C([O-])CN1CCN(CC(=O)[O-])CCN(CC(=O)NCCc2ccc3c(c2)C2C=CCC2C(c2cc4c(cc2Br)OCO4)N3)CCN(CC(=O)[O-])CC1.[111In+3] (stereo not shown) |  |  | mouse, Hec50 endometrial tumour, uterus | 2 h post injection |  | tissue uptake | 0.69 ± 0.08 %ID/g |
| N=C(N)NCCC[C@@H]1NC(=O)[C@H](Cc2c[nH]c3ccccc23)NC(=O)[C@@H](CC2CCCCC2)NC(=O)[C@@H]2CCCN2C(=O)[C@@H](NC(=O)CCc2ccccc2)CCCNC1=O |  |  | C57BL/6J mice, spinal cord | intraperitoneal, 1 mg/kg |  | Tmax | 17.5 min |
| Cn1cc2cc1C(=O)NC[C@H](N)CC(=O)Nc1cc(n(C)c1)C(=O)Nc1cc(n(C)c1)C(=O)Nc1cc(n(C)c1)C(=O)Nc1cc(n(C)c1)C(=O)NC[C@H](N)CC(=O)Nc1cn(C)c(n1)C(=O)Nc1cn(C)c(n1)C(=O)Nc1cc(n(C)c1)C(=O)N2 |  |  | C57BL/6 mice, plasma | intraperitoneal, 120 nmol/animal, 1.5 h |  | injected dose in plasma | ~1.2% |
| Cc1ccc(NCC(=O)Nc2ccc(F)c(Cl)c2)cc1S(=O)(=O)N(C)C |  |  | water |  |  | kinetic solubility | 181 µM (≈ 72.4 µg/mL) |
| CCn1c(=O)n(CCO)c(=O)c2c1nc(/C=C/c1ccc(OC)c(OC)c1)n2C |  |  | healthy humans, plasma | oral, 40 mg, with: rifampin 600 mg/day | baseline: with over without rifampin | geometric mean ratio AUClast | 0.32 |

A few entries again:
| SMILES | target or system | assay | system | setting | how to read | measurement | result |
| --- | --- | --- | --- | --- | --- | --- | --- |
| CCCC[C@H](NC(=O)CNC(=O)CNC(=O)CN1CCN(CC(=O)O)CCN(CC(=O)O)CCN(CC(=O)O)CC1)C(=O)N[C@H]1CC(=O)NCCCC[C@@H](C(N)=O)NC(=O)[C@H](Cc2c[nH]c3ccccc23)NC(=O)[C@H](CCCNC(=N)N)NC(=O)[C@@H](Cc2ccccc2)NC(=O)[C@H](Cc2c[nH]cn2)NC1=O [gallium-67 labelled] |  |  | female C57 mice, B16/F1 melanoma | intravenous, 0.037 MBq, 2 h | baseline: tumour over muscle | tumour to tissue ratio | 76 |
| COc1cc(-c2nc3ccccc3s2)cc(CN2Cc3cccc(n3)CN(Cc3cc(-c4nc5ccccc5s4)cc(OC)c3O)Cc3cccc(n3)C2)c1O |  | UV-vis spectrophotometric titration, item: H4L3+/H3L2+ equilibrium | MeOH/water with NaCl | 50 µM, room temperature, NaCl 0.1 M, MeOH ≤20% v/v |  | pKa1 | 4.35 |
| COc1cc(OC)cc(C2=C3C(C)=C(I)C(C)=[N+]3[B-](F)(F)n3c(/C=C/c4c[nH]c5ccccc45)c(I)c(C)c32)c1 |  |  | DMSO |  |  | absorption maximum | 636 nm |
